Assay results of several laboratories.
Each numbered part is a random draw from the data of one study; scales do not carry over between parts. Positions count from the first letter of the parent shown.

Sample 1
Target: CCNB3, cyclin fold, Cln2 fusion (human)
Method: yeast growth competition, sequencing
Medium: yeast
Notes: weak parent motif
Relative to: not given
Reading: higher = stronger binding
Quantity: normalised enrichment score
Starting sequence: PKMYT1 docking peptide (human); SFEPRNLLSLFED
SFEPRVLLSLFED [N6V]: 0.473
SFEPRWLLSLFED [N6W]: 0.584
SFEPRNLLNLFED [S9N]: 0.23
SFYPRNLLSLFED [E3Y]: 0.512
SFEPRNLLSLSED [F11S]: 0.67
SFEPRNLLLLFED [S9L]: 0.648
SFEPRNLLSLFEH [D13H]: -0.0323
SFEPRHLLSLFED [N6H]: 0.482

Sample 2
Target: Transcription factor Sp1 (SP1, Homo sapiens, UniProt P08047, residues 1-785, full length assumed)
Chain of UniProt P08047 (whole entry, looked up): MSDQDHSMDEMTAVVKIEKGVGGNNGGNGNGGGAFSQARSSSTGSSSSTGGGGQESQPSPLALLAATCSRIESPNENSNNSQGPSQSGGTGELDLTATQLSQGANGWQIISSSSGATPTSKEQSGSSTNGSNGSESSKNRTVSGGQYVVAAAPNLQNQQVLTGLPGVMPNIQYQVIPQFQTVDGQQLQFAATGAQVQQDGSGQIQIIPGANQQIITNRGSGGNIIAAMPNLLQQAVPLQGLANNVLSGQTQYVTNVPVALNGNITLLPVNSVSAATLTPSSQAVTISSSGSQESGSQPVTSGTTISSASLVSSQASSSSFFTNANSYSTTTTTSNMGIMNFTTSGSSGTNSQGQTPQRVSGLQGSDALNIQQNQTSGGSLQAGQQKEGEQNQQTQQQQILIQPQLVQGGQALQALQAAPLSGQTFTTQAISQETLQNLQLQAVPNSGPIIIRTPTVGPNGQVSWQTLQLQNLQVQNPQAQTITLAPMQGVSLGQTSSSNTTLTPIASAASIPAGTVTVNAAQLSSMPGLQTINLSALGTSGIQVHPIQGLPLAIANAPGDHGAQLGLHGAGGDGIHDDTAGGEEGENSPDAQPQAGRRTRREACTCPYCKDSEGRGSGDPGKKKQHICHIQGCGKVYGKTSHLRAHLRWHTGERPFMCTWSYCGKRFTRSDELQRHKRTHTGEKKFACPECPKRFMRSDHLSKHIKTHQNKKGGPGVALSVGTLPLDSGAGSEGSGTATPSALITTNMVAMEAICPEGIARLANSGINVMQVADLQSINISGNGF
Method: protein-binding microarray
Form: double-stranded DNA, one strand shown
Medium: in vitro
Tested at: not given
Notes: k-mer, scored over probes, only values ≥0.25
Reading: higher = stronger binding
Quantity: E-score
ACTCCCCT: 0.304
CCCTCCAC: 0.293
ACAATGTA: 0.288
AAAGTATA: 0.26
ATATATGC: 0.293
AGGGGAAG: 0.299
CCCCTTGA: 0.316
CATAAGGG: 0.297

Sample 3
Target: Prothrombin, mature alpha-thrombin (F2, Homo sapiens, UniProt P00734)
Method: aptamer microarray, sandwich
Form: DNA with 2'F-ANA
Medium: in vitro
Tested at: 200 nM
Notes: whole 15-mer aptamer, many near background
Together with: Cy3 exosite-II aptamer, 400 nM
Reading: higher = stronger binding
Quantity: mean fluorescence intensity
Sequence: GGTTGGTGTGGTTGG
2'F-ANA at 1 2 3 4 5 6 7 8 10 11 12 13 14: 54.5 a.u.
2'F-ANA at 5 6 7 8 9 10 11 14 15: 47 a.u.
2'F-ANA at 1 3 5 6 10 12 13 14: 46.3 a.u.
2'F-ANA at 2 3 5 7 8 10 13: 87.4 a.u.
2'F-ANA at 6 9 12: 714 a.u.
2'F-ANA at 2 3 5 6 7 9 12 15: 175 a.u.
2'F-ANA at 2 3 5 6 9 10 11 13 14 15: 49.1 a.u.
2'F-ANA at 1 2 3 6 10 11 14 15: 109 a.u.

Other studies, line by line
KRFYQTVGF
binding (HLA class I histocompatibility antigen, A alpha chain, allele A*26:03 (Homo sapiens, UniProt P04439); peptide-MHC binding; peptide; concentration not given): inactive

Repeated from above (sample 1):
SFEPRNLLNLFED [S9N]: 0.23
SFYPRNLLSLFED [E3Y]: 0.512
SFEPRNLLSLSED [F11S]: 0.67
SFEPRNLLLLFED [S9L]: 0.648
